Measured values gathered from unrelated publications.
Each line is one published result; not all experiments were run side by side. ± gives the spread as reported.

CC(C(=O)O)c1ccc(-c2ccccc2)c(F)c1 (stereo not drawn) — Tmax (rabbit, male, plasma; oral, 2.58 mg/kg, single dose): 1 h
CCCOc1ccc([C@H]2CNC(=O)N2c2ccc3[nH]cnc3c2)cc1 — Tmax (non-elderly adults, fasted, plasma; oral, 50 mg twice daily, day 11, oral solution, median): 0.5 h
CS(=O)(=O)n1cc2c(n1)CN([C@H]1CO[C@H](c3cc(F)ccc3F)[C@@H](N)C1)C2 — Tmax (healthy Japanese men, plasma; oral, 10 mg once weekly, day 15): 1 h
Cn1c(-c2ccc(C(N)=O)cc2F)nnc1C(C)(C)Oc1c(F)cc(Cl)cc1F — Tmax (elderly non-Japanese subjects, plasma; oral, 20 mg single dose, day 1, median): 3 h
NC(=O)c1cnc2[nH]ccc2c1N[C@@H]1[C@@H]2CC3C[C@H]1C[C@@](O)(C3)C2 — Tmax (Japanese, normal hepatic function, plasma; oral, 150 mg single dose, median): 1.25 h
COc1ccc2c3c1O[C@H]1C[C@@H](OC(=O)c4ccccc4)C=C[C@@]31CCN(C)C2 — Tmax (healthy elderly men, plasma; intranasal, 33 mg, single dose): 0.59 h
Nc1ncc(-c2cnn(CCO)c2)c2scc(-c3ccc(NC(=O)Nc4cccc(F)c4)cc3)c12 — Tmax (patients, plasma; oral, 480 mg twice weekly, day 15): 9.9 ± 11.9 h
Cc1ccc(Sc2ccccc2N2CCNCC2)c(C)c1 — Tmax (healthy men, plasma; oral, 5 mg once daily, fed, day 12): 8.3 h
O=C1CCc2ccc(OCCCCN3CCN(c4cccc(Cl)c4Cl)CC3)cc2N1 — Tmax (healthy Japanese men, CYP2D6 EM, plasma; oral, 3 mg aripiprazole single, with: paroxetine 20 mg/day): 1.7 ± 0.5 h
CC1=C2C[C@H]3[C@@H](CC[C@@H]4C[C@H](NS(C)(=O)=O)CC[C@@]43C)[C@@H]2CC[C@@]2(C1)O[C@@H]1C[C@H](C)CN[C@H]1[C@H]2C — Tmax (patients, plasma; oral, 210 mg daily, day 22, cycle 1): 5.08 h
CCOc1ccc(Cc2cc([C@@H]3S[C@H](CO)[C@@H](O)[C@H](O)[C@H]3O)c(OC)cc2C)cc1 — Tmax (Japanese type 2 diabetes patients, plasma; oral, 5 mg single dose, eGFR 45-59 mL/min/1.73 m^2, median): 0.5 h
NS(=O)(=O)c1cc(Cl)c(Cl)c(S(N)(=O)=O)c1 — Tmax (healthy volunteers, plasma; oral, 400 mg, single dose, median): 3 h
NC(=S)NN=Cc1ncccc1N — Tmax (human, serum; oral, 200 mg): 1.5 h
Cc1nc(-c2ccc(OCC(C)C)c(C#N)c2)sc1C(=O)O — Tmax (healthy men, plasma; oral, 40 mg once daily, day 7 or 21, median): 1.5 h
CCCN1CC(c2ccc(S(C)(=O)=O)cc2)=C(c2ccc(C)cc2)C1=O — Tmax (healthy Chinese, elderly, plasma; oral, 100 mg, fasting): 2 h
COc1cc(OC)c(/C=C/S(=O)(=O)Cc2ccc(OC)c(NCC(=O)O)c2)c(OC)c1 — Tmax (cancer patients, phase I, plasma; oral, 560 mg twice daily, day 1 cycle 1): 1.02 ± 0.32 h
Cc1ccc(NC(=O)c2ccc(CN3CCN(C)CC3)cc2)cc1Nc1nccc(-c2cncc(-c3oncc3C)c2)n1 — Tmax (healthy volunteers, plasma; oral, 25.0 mg once daily, day 7, 7-day dosing, mean): 4.68 h
CO[C@H]1C[C@@H]2CC[C@@H](C)[C@@](O)(O2)C(=O)C(=O)N2CCCC[C@H]2C(=O)O[C@H]([C@H](C)C[C@@H]2CC[C@@H](OP(C)(C)=O)[C@H](OC)C2)CC(=O)[C@H](C)/C=C(\C)[C@@H](O)[C@@H](OC)C(=O)[C@H](C)C[C@H](C)/C=C/C=C/C=C/1C — Tmax (HPLC-MS/MS; Japanese patients, whole blood; oral, 40 mg, day 26, cycle 1, median): 4.04 h
Cn1c(=O)n(-c2ccc(C(C)(C)C#N)cc2)c2c3cc(-c4cnc5ccccc5c4)ccc3ncc21 — Tmax (patients with advanced solid tumours; oral, 200 to 800 mg, day 1, with: everolimus): ~3 h
NC(=O)c1cnc2[nH]ccc2c1N[C@@H]1[C@@H]2CC3C[C@H]1C[C@@](O)(C3)C2 — Tmax (healthy Caucasian men, plasma; oral, 20 mg, single dose fasted median): 1 h
CC(C)=CCC[C@](C)(O[C@@H]1O[C@H](CO)[C@@H](O)[C@H](O)[C@H]1O)[C@H]1CC[C@]2(C)[C@@H]1[C@H](O)C[C@@H]1[C@@]3(C)CC[C@H](O[C@@H]4O[C@H](CO)[C@@H](O)[C@H](O)[C@H]4O)C(C)(C)[C@@H]3CC[C@]12C — Tmax (LC-MS/MS; healthy female volunteers, serum; oral, 3 g red ginseng): 12.8 ± 4.5 h
C[C@@H](O)[C@H]1C(=O)N2C(C(=O)O)=C(S[C@@H]3CN[C@H](C(=O)N(C)C)C3)[C@H](C)[C@H]12 — Tmax (microdialysis; Danish Landrace pig, subcutaneous adipose tissue; intravenous infusion, 1000 mg over 10 min, with: vancomycin): 0.433 h
CN[C@H]1C(=O)N[C@@H]2Cc3ccc(cc3)Oc3cc4cc(c3O[C@@H]3O[C@H](C(=O)O)[C@@H](O)[C@H](O)[C@H]3NC(=O)CCCCCCCCC(C)C)Oc3ccc(cc3Cl)[C@@H](O)[C@@H]3NC(=O)[C@H](NC(=O)[C@@H]4NC(=O)[C@@H](NC2=O)c2cc(cc(O)c2Cl)Oc2cc1ccc2O)c1ccc(O)c(c1)-c1c(O[C@H]2O[C@H](CO)[C@@H](O)[C@H](O)[C@@H]2O)cc(O)cc1[C@@H](C(=O)NCCCN(C)C)NC3=O — Tmax (healthy Japanese subjects, plasma; intravenous infusion, 500 mg, 30 min infusion, single dose, median): 0.5 h
CC(C)(Sc1ccncc1-c1ccc(C#N)c2ccccc12)C(=O)O — Tmax (male, plasma; oral, 15 mg, mild renal impairment, fasted): 2.5 h
CS(=O)(=O)c1ccc([C@@H](O)[C@@H](CF)NC(=O)C(Cl)Cl)cc1 — Tmax (chicken, HY-Line Brown hens, plasma; oral, 20 mg/kg): 0.79 ± 0.1 h
COc1cc2c(cc1OC)CN(CCc1ccc(NC(=O)c3cc(OC)c(OC)cc3NC(=O)c3cnc4ccccc4c3)cc1)CC2 — Tmax (human, plasma; intravenous infusion, 6 mg/kg): 2.8 h
Cc1cc(-c2ccn3c(-c4ccc(CC(=O)Nc5cccc(C(F)(F)F)c5)c(F)c4)cnc3c2)ccn1 — Tmax (human, plasma; oral, 50 mg multiple doses, with: drug interaction probe cocktail): 0 h
CC[C@H](C)[C@H](NC(=O)[C@@H]1CCCN1C(=O)CNC(=O)[C@H](Cc1ccccc1)NC(=O)[C@H](CC(N)=O)NC(=O)[C@H](CC(N)=O)NC(=O)[C@H](CO)NC(=O)[C@H](CO)NC(=O)[C@H](Cc1c[nH]cn1)NC(=O)[C@@H](NC(=O)[C@H](CC(C)C)NC(=O)[C@H](Cc1ccccc1)NC(=O)[C@H](CC(N)=O)NC(=O)[C@H](C)NC(=O)[C@H](CC(C)C)NC(=O)[C@H](CCCNC(=N)N)NC(=O)[C@H](CCC(N)=O)NC(=O)[C@@H](NC(=O)[C@H](C)NC(=O)[C@@H]1CSSC[C@H](NC(=O)[C@@H](N)CCCCN)C(=O)N[C@@H](CC(N)=O)C(=O)N[C@@H]([C@@H](C)O)C(=O)N[C@@H](C)C(=O)N[C@@H]([C@@H](C)O)C(=O)N1)[C@@H](C)O)C(C)C)C(=O)N[C@@H](CC(C)C)C(=O)N1CCC[C@H]1C(=O)N1CCC[C@H]1C(=O)N[C@H](C(=O)N[C@@H](CC(N)=O)C(=O)N[C@H](C(=O)NCC(=O)N[C@@H](CO)C(=O)N[C@@H](CC(N)=O)C(=O)N[C@H](C(=O)N[C@@H](Cc1ccc(O)cc1)C(N)=O)[C@@H](C)O)C(C)C)[C@@H](C)O — Tmax (ELISA; type 1 diabetes patients, plasma; subcutaneous, 6, 9 or 12 µg/U insulin): 0.25 to 0.5 h
O=C(c1cccnc1-c1ccncc1)N1CCC(O)(Cc2ccccc2)CC1 — Tmax (healthy subjects, plasma; oral, 300 mg twice daily, day 1): 0.44 h
CC(C)=CCC[C@](C)(O[C@@H]1O[C@H](CO)[C@@H](O)[C@H](O)[C@H]1O)[C@H]1CC[C@]2(C)[C@@H]1[C@H](O)C[C@@H]1[C@@]3(C)CC[C@H](O[C@@H]4O[C@H](CO)[C@@H](O)[C@H](O)[C@H]4O[C@@H]4O[C@H](CO)[C@@H](O)[C@H](O)[C@H]4O)C(C)(C)[C@@H]3CC[C@]12C — Tmax (LC-MS/MS; healthy male volunteers, serum; oral, 3 g red ginseng): 6.67 ± 4.55 h
CC(=O)Nc1ccc(O[C@@H]2O[C@H](C(=O)O)[C@@H](O)[C@H](O)[C@H]2O)cc1 — Tmax (healthy volunteers, both sexes, plasma; oral, 650 mg acetaminophen, day 1): 2 h
CN1C(=O)[C@@H](NC(=O)c2nnc(Cc3ccccc3)[nH]2)COc2ccccc21 — Tmax (healthy men, plasma; oral, 20 mg once daily, day 1, median): 2 h
C[C@@H](N)c1cc(Cl)ccc1Cn1c(=S)[nH]c(=O)c2[nH]ccc21 — Tmax (healthy Japanese volunteers, plasma; oral, 5 mg once daily, day 10, median): 2 h
Cc1ccc(-c2ncc(Cl)cc2-c2ccc(S(C)(=O)=O)cc2)cn1 — Tmax (patients after hip surgery, plasma; oral, 120 mg): 1 h
CN[C@H](CC(C)C)C(=O)N[C@H]1C(=O)N[C@@H](CC(N)=O)C(=O)N[C@H]2C(=O)N[C@H]3C(=O)N[C@H](C(=O)N[C@H](C(=O)O)c4cc(O)cc(O)c4-c4cc3ccc4O)[C@H](O)c3ccc(c(Cl)c3)Oc3cc2cc(c3O[C@@H]2O[C@H](CO)[C@@H](O)[C@H](O)[C@H]2O[C@H]2C[C@](C)(N)[C@H](O)[C@H](C)O2)Oc2ccc(cc2Cl)[C@H]1O — Tmax (microdialysis; pig (Danish Landrace), cortical bone; iv infusion, 1000 mg over 100 min, with: meropenem co-administered): 5.5 h
CCOc1cc([C@@H](CS(C)(=O)=O)N2C(=O)c3cccc(NC(C)=O)c3C2=O)ccc1O[C@@H]1O[C@H](C(=O)O)[C@@H](O)[C@H](O)[C@H]1O — Tmax (mild renal impairment patients, plasma; oral, 30 mg of apremilast): 5 h
CN1CC[C@@H](NC(=O)Nc2ccc(C#N)cc2)C[C@@H]1c1nc2ccccc2[nH]1 — Tmax (Japanese patients; oral, 50 mg once daily, cycle 1 day 21, median): 4 h
Nc1cc(F)ccc1NC(=O)c1ccc(CNC(=O)/C=C/c2cccnc2)cc1 — Tmax (Japanese patients, plasma; oral, 40 mg twice weekly, cycle 1 day 25, median): 4.19 h
CC(C(=O)O)c1ccc(-c2ccccc2)c(F)c1 (stereo not drawn) — Tmax (healthy volunteers, plasma; oral, 100 mg, median, with: control beverage 250 mL): 1.75 h
